# Assay results of several laboratories.
# Each numbered part is a random draw from the data of one study; scales do not carry over between parts. Substitutions count along the parent as printed.
# Sequence of UniProt P16234 (whole entry, looked up): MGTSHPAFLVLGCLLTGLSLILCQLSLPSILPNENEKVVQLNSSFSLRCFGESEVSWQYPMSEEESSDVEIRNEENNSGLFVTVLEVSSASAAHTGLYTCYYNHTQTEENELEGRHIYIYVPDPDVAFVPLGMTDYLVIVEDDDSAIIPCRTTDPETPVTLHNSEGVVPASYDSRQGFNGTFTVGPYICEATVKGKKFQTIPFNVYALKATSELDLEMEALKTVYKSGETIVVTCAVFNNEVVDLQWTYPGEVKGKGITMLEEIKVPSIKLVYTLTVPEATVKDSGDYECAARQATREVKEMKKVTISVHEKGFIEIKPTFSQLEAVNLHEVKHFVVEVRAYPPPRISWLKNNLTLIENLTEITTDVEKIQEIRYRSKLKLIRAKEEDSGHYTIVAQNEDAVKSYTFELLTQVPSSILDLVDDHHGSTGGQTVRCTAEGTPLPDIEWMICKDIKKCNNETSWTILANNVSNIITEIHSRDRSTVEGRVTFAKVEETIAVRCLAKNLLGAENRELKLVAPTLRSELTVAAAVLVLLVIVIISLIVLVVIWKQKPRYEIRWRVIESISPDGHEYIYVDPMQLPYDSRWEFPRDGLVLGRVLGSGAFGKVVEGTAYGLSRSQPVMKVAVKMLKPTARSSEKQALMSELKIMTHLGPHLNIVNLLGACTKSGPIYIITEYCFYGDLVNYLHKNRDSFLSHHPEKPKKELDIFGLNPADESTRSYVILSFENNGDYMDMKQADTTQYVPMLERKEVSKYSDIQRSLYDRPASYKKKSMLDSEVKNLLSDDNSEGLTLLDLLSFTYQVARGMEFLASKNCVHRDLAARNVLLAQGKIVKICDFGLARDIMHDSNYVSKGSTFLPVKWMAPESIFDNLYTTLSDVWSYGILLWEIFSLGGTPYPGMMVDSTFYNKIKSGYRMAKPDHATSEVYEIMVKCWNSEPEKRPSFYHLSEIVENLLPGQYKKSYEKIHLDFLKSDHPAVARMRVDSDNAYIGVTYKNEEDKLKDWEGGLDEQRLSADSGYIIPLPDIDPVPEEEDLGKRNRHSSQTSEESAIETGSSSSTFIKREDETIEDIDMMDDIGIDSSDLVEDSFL
# Sequence of UniProt P54764 (whole entry, looked up): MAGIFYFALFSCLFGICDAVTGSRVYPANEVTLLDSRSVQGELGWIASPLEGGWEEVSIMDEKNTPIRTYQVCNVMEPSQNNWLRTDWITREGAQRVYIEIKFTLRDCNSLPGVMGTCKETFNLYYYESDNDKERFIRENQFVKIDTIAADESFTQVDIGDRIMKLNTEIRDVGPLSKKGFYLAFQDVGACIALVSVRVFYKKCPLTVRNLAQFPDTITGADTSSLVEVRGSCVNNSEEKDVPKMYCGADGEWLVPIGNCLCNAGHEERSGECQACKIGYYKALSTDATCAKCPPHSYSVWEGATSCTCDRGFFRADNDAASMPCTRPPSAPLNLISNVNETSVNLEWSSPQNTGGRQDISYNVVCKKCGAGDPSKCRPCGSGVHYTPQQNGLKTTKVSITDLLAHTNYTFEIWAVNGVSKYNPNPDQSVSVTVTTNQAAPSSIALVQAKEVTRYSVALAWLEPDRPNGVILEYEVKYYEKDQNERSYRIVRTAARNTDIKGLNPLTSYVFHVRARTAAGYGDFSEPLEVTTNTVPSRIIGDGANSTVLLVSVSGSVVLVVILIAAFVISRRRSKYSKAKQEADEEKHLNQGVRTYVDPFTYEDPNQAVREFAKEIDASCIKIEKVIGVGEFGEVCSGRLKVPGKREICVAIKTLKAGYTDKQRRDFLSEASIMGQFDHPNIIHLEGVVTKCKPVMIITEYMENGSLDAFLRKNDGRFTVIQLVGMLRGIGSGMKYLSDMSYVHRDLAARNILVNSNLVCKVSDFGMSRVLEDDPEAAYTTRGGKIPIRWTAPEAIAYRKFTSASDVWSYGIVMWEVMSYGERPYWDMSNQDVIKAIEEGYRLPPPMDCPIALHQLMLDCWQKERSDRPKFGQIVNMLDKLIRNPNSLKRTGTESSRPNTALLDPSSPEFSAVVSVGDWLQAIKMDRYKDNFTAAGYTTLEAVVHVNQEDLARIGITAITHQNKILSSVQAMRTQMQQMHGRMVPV
# Sequence of UniProt P06213 (whole entry, looked up): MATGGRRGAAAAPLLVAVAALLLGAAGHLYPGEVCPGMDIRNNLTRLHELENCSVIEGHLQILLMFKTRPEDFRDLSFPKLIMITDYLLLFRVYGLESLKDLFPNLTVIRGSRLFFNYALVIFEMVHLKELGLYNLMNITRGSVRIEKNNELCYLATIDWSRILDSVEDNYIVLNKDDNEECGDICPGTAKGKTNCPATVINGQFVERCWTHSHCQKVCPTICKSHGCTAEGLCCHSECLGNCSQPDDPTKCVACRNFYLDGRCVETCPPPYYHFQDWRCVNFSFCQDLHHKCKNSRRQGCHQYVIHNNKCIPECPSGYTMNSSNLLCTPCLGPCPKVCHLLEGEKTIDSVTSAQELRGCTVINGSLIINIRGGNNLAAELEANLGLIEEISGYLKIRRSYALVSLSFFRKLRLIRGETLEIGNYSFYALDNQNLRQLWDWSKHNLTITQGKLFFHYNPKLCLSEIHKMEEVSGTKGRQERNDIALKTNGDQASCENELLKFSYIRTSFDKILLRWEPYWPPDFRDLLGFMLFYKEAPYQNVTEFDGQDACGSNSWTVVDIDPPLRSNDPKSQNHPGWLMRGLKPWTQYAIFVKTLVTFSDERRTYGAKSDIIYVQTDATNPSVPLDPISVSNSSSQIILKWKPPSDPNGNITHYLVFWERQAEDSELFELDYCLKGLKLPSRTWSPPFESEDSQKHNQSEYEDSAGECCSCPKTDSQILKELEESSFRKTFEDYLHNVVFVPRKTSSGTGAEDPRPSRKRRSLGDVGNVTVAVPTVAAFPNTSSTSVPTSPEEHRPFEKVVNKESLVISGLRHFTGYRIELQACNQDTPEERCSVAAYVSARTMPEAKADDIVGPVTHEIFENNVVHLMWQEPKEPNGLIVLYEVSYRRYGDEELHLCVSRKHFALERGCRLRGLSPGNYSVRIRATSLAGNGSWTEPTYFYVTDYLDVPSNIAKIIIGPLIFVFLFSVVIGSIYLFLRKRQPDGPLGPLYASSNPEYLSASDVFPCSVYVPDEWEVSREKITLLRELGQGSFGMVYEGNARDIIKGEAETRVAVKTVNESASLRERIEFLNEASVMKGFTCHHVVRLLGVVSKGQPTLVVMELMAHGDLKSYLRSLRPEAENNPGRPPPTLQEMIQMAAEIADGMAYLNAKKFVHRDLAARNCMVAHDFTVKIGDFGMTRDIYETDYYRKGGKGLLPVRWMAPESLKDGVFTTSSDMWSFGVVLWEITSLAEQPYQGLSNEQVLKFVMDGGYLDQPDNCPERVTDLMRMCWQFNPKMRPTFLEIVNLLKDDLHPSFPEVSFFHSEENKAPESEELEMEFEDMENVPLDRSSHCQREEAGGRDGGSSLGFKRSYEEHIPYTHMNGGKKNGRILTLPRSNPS
# Sequence of UniProt P00519 (whole entry, unmodified, looked up): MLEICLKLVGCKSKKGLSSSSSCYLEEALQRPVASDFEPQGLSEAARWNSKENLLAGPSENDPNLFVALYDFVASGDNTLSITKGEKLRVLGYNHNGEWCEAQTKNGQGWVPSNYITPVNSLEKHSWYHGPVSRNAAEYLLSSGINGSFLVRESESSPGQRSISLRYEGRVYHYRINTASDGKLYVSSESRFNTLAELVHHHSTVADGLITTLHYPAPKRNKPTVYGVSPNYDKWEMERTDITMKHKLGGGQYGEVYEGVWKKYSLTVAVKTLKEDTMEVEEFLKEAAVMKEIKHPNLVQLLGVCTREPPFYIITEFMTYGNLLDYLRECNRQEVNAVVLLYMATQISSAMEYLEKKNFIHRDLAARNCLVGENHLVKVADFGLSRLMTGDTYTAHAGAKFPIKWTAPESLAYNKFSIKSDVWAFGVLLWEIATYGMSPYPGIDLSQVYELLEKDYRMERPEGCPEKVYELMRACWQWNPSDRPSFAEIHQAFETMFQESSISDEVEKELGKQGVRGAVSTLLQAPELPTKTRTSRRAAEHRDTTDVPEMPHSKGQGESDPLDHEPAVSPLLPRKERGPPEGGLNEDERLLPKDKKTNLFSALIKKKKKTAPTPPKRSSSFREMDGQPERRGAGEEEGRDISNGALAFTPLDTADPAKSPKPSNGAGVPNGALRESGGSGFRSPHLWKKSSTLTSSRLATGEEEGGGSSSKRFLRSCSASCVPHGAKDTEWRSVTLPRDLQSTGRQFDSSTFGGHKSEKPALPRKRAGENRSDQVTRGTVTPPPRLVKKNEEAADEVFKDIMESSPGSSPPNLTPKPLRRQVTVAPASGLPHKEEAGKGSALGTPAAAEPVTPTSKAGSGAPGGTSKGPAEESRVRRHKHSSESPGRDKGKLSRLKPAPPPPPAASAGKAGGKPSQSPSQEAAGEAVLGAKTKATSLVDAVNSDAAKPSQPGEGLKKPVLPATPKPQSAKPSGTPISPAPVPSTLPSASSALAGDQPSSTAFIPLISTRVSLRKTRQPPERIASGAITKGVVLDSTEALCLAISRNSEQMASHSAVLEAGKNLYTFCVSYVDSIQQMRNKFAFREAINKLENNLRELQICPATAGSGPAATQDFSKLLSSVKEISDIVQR

# Set 1
# Structure (SMILES): CO[C@H]1CC[C@H](CNc2ccc(S(=O)(=O)NC(=O)c3ccc(N4CCN(CC5=C(c6ccc(Cl)cc6)CC(C)(C)CC5)CC4)cc3Oc3cnc4[nH]ccc4c3)cc2[N+](=O)[O-])CC1
# Method: competition with immobilised ligand
# Concentration: 1 µM
target,test,remaining binding [%]
"Ephrin type-A receptor 4 (EPHA4, Homo sapiens, UniProt P54764)",cell-free assay,88
"Cyclin-dependent kinase-like 3 (CDKL3, Homo sapiens, UniProt Q8IVW4)",cell-free assay,83
"Platelet-derived growth factor receptor alpha (PDGFRA, Homo sapiens, UniProt P16234)",cell-free assay,100
"Insulin receptor (INSR, Homo sapiens, UniProt P06213)",cell-free assay,91
"Tyrosine-protein kinase ABL1, non-phosphorylated (ABL1, Homo sapiens, UniProt P00519, F317I)",binding,100
"Leucine-rich repeat serine/threonine-protein kinase 2 (LRRK2, Homo sapiens, UniProt Q5S007)",cell-free assay,100

# Set 2
# Target: Prothrombin, mature alpha-thrombin (F2, Homo sapiens, UniProt P00734)
# Method: aptamer microarray, sandwich
# Molecule type: DNA with 2'F-ANA
# Sample: in vitro
# Concentration: 200 nM
# Setting: whole 15-mer aptamer, many near background
# With: Cy3 exosite-II aptamer, 400 nM
# Direction: higher = stronger binding
# Strand: GGTTGGTGTGGTTGG
Modification,mean fluorescence intensity
2'F-ANA at 2 5 7 8,94.7 a.u.
2'F-ANA at 1 3 4 6 11 15,144 a.u.
2'F-ANA at 1 4 5 7 8 9 11 14,50.7 a.u.
2'F-ANA at 3 4 5 7 9 10 11 13,59.3 a.u.
2'F-ANA at 2 7 9 12 15,743 a.u.
2'F-ANA at 7 8 11 12 15,779 a.u.
2'F-ANA at 1 2 5 8 10 11 12 13 14 15,48.9 a.u.
2'F-ANA at 1 2 5 6 8 9 10 12 15,50.4 a.u.

# Set 3
# Substitution: V136S
# Target: ABI1, truncated, D143A, DHFR fusion (Arabidopsis thaliana)
# Method: DHFR PCA, deep sequencing
# Sample: yeast
# Setting: methotrexate growth selection, single substitutions
# Reference: wild-type fitted maximum
# Direction: higher = stronger binding
# Parent: PYL1, truncated, DHFR fusion (Arabidopsis thaliana); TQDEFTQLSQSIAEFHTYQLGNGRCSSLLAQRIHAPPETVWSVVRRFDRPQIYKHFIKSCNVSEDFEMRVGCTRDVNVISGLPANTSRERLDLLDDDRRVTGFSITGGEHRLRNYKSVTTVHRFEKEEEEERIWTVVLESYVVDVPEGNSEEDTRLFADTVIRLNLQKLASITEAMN; partner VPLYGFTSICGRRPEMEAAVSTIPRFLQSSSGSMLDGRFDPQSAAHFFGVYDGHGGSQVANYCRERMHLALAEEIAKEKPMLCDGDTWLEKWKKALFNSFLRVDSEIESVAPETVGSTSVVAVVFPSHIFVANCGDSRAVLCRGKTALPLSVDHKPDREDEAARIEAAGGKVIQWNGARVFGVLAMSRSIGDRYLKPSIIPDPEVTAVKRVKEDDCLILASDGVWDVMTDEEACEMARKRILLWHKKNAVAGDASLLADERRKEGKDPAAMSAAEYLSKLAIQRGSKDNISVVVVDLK
conditions,relative binding score
with: (+)-ABA 0.11 µM,2.41%
with: (+)-ABA 710 µM,67.5%
with: (+)-ABA 17 µM,10.7%
with: (+)-ABA 0.39 µM,-12.7%
with: (+)-ABA 0.032 µM,-1.06%
with: (+)-ABA 1.4 µM,3.26%

# Other studies, line by line
Compound,organism,test,system,conditions,how to read,quantity,value
CN(Cc1cc(Br)cc(Br)c1N)C1CCCCC1,Plasmodium berghei,inhibitor,"Huh-7, GFP-expressing sporozoites, liver stage","10 µM, 24 h",reference: untreated control,infection rate,114%

# For quick reference, copied from above (set 3):
conditions,relative binding score
with: (+)-ABA 1.4 µM,3.26%
with: (+)-ABA 710 µM,67.5%
with: (+)-ABA 0.032 µM,-1.06%
